Published values from different studies.
Numbered parts are unrelated; each lists some results of a single study. Positions count from the first letter of the parent shown.
UniProt P41143, sequence (whole entry, looked up): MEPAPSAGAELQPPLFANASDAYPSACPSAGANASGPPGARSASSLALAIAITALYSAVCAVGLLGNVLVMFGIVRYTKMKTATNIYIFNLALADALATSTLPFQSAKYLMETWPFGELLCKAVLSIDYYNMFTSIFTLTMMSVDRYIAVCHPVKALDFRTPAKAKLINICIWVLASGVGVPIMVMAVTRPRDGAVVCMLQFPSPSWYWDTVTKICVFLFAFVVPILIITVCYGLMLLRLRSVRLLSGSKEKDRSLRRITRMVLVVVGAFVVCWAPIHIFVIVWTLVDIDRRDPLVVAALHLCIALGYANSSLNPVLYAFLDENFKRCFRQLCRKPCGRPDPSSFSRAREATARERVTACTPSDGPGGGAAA

Set 1 — target: CCND3, cyclin fold, Cln2 fusion (human); method: yeast growth competition, sequencing; matrix: yeast; setting: weak parent motif; relative to: not given; reading: higher = stronger binding; starting sequence: viral docking peptide; YKVKRRLVFGADD
Variant | normalised enrichment score
R5H | 0.146
F9R | 0.0733
R5K | 0.153
F9G | 0.249
D12N | 0.358
V3A | 0.75
F9I | 0.508
G10W | 0.233

Set 2 — observed: peptide-MHC binding; form: peptide; tested at: concentration not given
Target: HLA class I histocompatibility antigen, A alpha chain, allele A*25:01 (Homo sapiens, UniProt P04439)
Sequence | binding
DELWRGLLA | inactive
GIADFIIFK | inactive
KQIVIINPM | inactive
KSWLVHWSL | inactive
YTENTSSYY | inactive
GIALAVPCV | inactive
APDGFYPFK | inactive
FSDLCNFLI | inactive

Set 3 — target: UBE2W UBC core domain (UniProt Q96B02); method: yeast two-hybrid; matrix: yeast; setting: mostly zero background; relative to: not given; reading: higher = stronger interaction
B1: HLTF RING domain (UniProt Q14527); chain LILSSGSDEECAICLDSLTVPVITHCAHVFCKPCICQVIQNEQPHAKCPLCRNDIHEDNLLE
B2: ZMYND11 RING domain (UniProt Q15326); chain DEIDWETENHDWYCFECHLPGEVLICDLCFRVYHSKCLSDEFRLRDSSSPWQCPVCRSIKKKNTNKQEM
B3: MID2 RING domain (UniProt Q9UJV3); chain KMETLESELTCPICLELFEDPLLLPCAHSLCFSCAHRILVSSCSSGESIEPITAFQCPTCRYVISLNHRGL
B4: TRIM11 RING domain (UniProt Q96F44); chain LSTNLQEEATCAICLDYFTDPVMTDCGHNFCRECIRRCWGQPEGPYACPECRELSPQRNLRP
Construct (chain): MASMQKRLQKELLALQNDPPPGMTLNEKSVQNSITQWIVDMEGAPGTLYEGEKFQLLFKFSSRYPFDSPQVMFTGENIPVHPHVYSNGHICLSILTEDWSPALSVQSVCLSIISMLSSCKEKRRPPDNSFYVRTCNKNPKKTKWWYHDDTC
Sequence | lacZ reporter activity
B1 (HLTF RING domain) | 0
FAEQPSVKLCCQLCCSVFKDPVITTCGHTFCRRCALKSEKCPVDNVKLTVVVNNI (TRAF7 RING domain (UniProt Q6Q0C0)) | 0
B2 (ZMYND11 RING domain) | 0
B3 (MID2 RING domain) | 0
ASEEEFQFLRCQQCQAEAKCPKLLPCLHTLCSGCLEASGMQCPICQAPWPLGADTP (PML RING domain (UniProt P29590)) | 2850
ASPKIFQKTKCSICNSALELPSVHFLCGHSFHQHCFESYSESDADCPTCLPENRKVMDMI (VPS11 RING domain (UniProt Q9H270)) | 0
B4 (TRIM11 RING domain) | 0
LVKDFNPYITCYICKGYLIKPTTVTECLHTFCKTCIVQHFEDSNDCPRCGNQVHETNPLE (PCGF5 RING domain (UniProt Q86SE9)) | 0

Single results of other studies
Compound | target | assay | setting | endpoint | value
CC(=O)c1c(NS(C)(=O)=O)c2cc(-c3ccc(Cl)cc3)c(-c3ccc(Cl)cc3Cl)nc2n(C)c1=O | Delta-type opioid receptor (OPRD1, Homo sapiens, UniProt P41143) | binding, radioligand binding | 10 µM | inhibition | 73.6%

For quick reference, copied from above (set 2):
Sequence | binding
KSWLVHWSL | inactive
APDGFYPFK | inactive
